Results from different studies.
Lines come from different studies, so protocols differ. Numbers after ± are the reported error.

Structure (SMILES)	assay	test system	conditions	clearance
Nc1ccn([C@@H]2O[C@H](CO)[C@@H](O)C2(F)F)c(=O)n1	HPLC-UV	human, plasma	800 mg/m^2, median, before paricalcitol	49.1 L/h/m²
CN(C)CCCNC(=O)/C(=C/CCCCC(=O)NO)COc1cccc2ccccc12	–	human	iv, 187.5 mg/m2, day 1, single dose, mean	6.49 L/h
NC(=O)N1c2ccccc2CC(O)c2ccccc21 (stereo not drawn)	population PK modelling	human patients, plasma	weight-scaled, with back-conversion	2.76 L/h
CN[C@@H](C)C(=O)N[C@H]1CN(S(=O)(=O)c2cccc(S(=O)(=O)N3CC[C@H]4CC[C@@H](C(=O)NC(c5ccccc5)c5ccccc5)N4C(=O)[C@@H](NC(=O)[C@H](C)NC)C3)c2)CC[C@H]2CC[C@@H](C(=O)NC(c3ccccc3)c3ccccc3)N2C1=O	LC-MS/MS, noncompartmental	human, plasma	30 mg, cycle 1 day 1	39.4 ± 18.4 L/h
O=C(/C=C/c1cccc(S(=O)(=O)Nc2ccccc2)c1)NO	–	human patients, plasma	1900 mg/m^2	28 L/h/m²
NS(=O)(=O)OC[C@@H]1C[C@@H](n2ccc3c(N[C@H]4CCc5ccccc54)ncnc32)C[C@@H]1O	–	human, plasma	day 1 cycle 1, median, all dose levels	18.3 L/h/m2
CN(C)N=Nc1[nH]cnc1C(N)=O	–	human patients, plasma	intravenous, 1000 mg/m^2 over 1 h, cycle 2 day 1, staggered with twice-weekly co-drug	12.5 L/h/m²
Cc1cn(-c2cc(NC(=O)c3ccc(C)c(Nc4nccc(-c5cccnc5)n4)c3)cc(C(F)(F)F)c2)cn1	population PK model	human, plasma	oral, bootstrap estimate	34.5 L/h
Cc1ccc([C@@H]2O[C@H](CO)[C@@H](O)[C@H](O)[C@H]2O)cc1Cc1ccc(-c2ccc(F)cc2)s1	–	human, maintenance hemodialysis patients	oral, 300 mg once daily, steady state, median	14 L/h
